Published values from different studies.
Each numbered part is a random draw from the data of one study; scales do not carry over between parts.

Set 1 — cell line: HEK-293T/ACE2; tested at: concentration not given; time: 16 (unit not given); baseline: vehicle
Compound	viability [%]
Cc1[nH]cnc1CN1CCc2c(c3ccccc3n2C)C1=O	103
C#C[C@]1(O)CC[C@H]2[C@@H]3CCC4=C(CCC(=O)C4)[C@H]3CC[C@@]21C	104
Cc1nc2n(c(=O)c1CCN1CCC(c3noc4cc(F)ccc34)CC1)CCCC2O (stereo not drawn)	96.2
Cc1ccc(-c2cc(C(F)(F)F)nn2-c2ccc(S(N)(=O)=O)cc2)cc1	101
COc1cccc2c1C(=O)c1c(O)c3c(c(O)c1C2=O)C[C@@](O)(C(C)=O)C[C@@H]3O[C@H]1C[C@H](N)[C@H](O)[C@H](C)O1	75.6

Set 2 — effect on: enzyme activity; mode: inhibitor; tested at: 20 µM; setting: primary screen
Target: Replicase polyprotein 1ab, main protease (rep, Severe acute respiratory syndrome coronavirus 2, UniProt P0DTD1)
SMILES	inhibition [%]
CN1CC[C@@]2(C)c3cc(O)ccc3N(C)[C@@H]12	91.5
O=C(O)C(=O)CBr	78.9
Oc1cc2c(cc1O)C(Cc1cccc3ccccc13)NCC2 (stereo not drawn)	39.7

Set 3 — method: protein binding microarray; form: double-stranded DNA, one strand shown; sample: in vitro; tested at: not given; baseline: not given; reading: higher = stronger binding
Target: Histone acetyltransferase KAT6A, winged helix 2, GST fusion (KAT6A, Homo sapiens, UniProt Q92794, residues 85-181)
Setting: 8-mer, flanks averaged, mean of 2 arrays, mostly near background
Construct (chain): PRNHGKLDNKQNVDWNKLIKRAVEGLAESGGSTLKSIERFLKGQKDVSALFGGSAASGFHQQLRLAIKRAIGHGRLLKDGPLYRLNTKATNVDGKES
Strand	E-score
ACAGGCCG	0.0508
ATATTAGG	-0.094
GATCTAGC	-0.0579
ACTGAAGG	0.0978
ACCTGGCA	0.102
ATGACACG	0.0118
ATTAGGTC	-0.0549
CATCAAAA	0.113

Set 4 — method: protein-binding microarray; form: double-stranded DNA, one strand shown; sample: in vitro; tested at: 2200 nM top; setting: 60-bp whole probe; with: salmon DNA 0.4 mg/ml; baseline: random background probes; reading: higher = stronger binding; shared flanks, not repeated: GCCTAGCAC … GTCTTGATTCGCTTGACGCTGCTG
Target: Interferon regulatory factor 7, full length, phosphomimetic (IRF7, Homo sapiens, UniProt Q92985, residues 1-503, S471D/S472D/S475D/S476D/S477D/S483D/S484D/S487D)
Chain of UniProt Q92985 (whole entry, unmodified, looked up): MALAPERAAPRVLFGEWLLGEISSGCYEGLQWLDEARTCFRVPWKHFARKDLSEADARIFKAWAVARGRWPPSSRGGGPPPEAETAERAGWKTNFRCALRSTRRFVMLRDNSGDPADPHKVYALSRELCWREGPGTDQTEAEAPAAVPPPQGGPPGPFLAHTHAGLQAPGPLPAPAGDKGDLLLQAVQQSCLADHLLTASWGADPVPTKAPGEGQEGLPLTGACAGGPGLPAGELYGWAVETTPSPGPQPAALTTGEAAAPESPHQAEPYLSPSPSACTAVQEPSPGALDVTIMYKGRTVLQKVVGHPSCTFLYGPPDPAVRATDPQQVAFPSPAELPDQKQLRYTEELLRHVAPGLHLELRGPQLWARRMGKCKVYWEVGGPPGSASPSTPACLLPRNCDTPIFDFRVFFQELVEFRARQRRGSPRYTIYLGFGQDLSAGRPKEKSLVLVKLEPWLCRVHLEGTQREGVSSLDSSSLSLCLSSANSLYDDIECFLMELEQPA
Strand	fitted relative affinity [z-score]
TTCTATCTCTGTTTTTGCTTGTGCTAG	2.09
GACGGTTTCAGTTTCGAGACGTGCTAG	7.5
GGGTCTCTTGTTCTCTCTGGGTGCTAG	0.713
GCATTTTTCTAATTTACTTTGTGCTAG	2.01
TCATTTCTTTGCTTCACACTGTGCTAG	2.6
TTAGGACTGCACTTTCGGTTAGTGCTA	7.35
TTAGTTCTCCTTCTCCTTTAGTGCTAG	2.15
GACGATATCAGTTTCGATACGTGCTAG	5.26

Set 5 — effect on: enzyme activity; mode: inhibitor; tested at: 20 µM
Target: Replicase polyprotein 1ab, polymerase (rep, Severe acute respiratory syndrome coronavirus 2, UniProt P0DTD1)
Structure (SMILES)	inhibition
C=C(NC(=O)C(=C)NC(=O)c1csc(C2=N[C@@H]3c4csc(n4)[C@H]4NC(=O)c5csc(n5)[C@H]([C@](C)(O)[C@@H](C)O)NC(=O)[C@H]5CSC(=N5)/C(=C/C)NC(=O)[C@H]([C@@H](C)O)NC(=O)c5csc(n5)[C@]3(CC2)NC(=O)[C@H](C)NC(=O)C(=C)NC(=O)[C@H](C)NC(=O)[C@H]([C@@H](C)CC)N[C@@H]2C=Cc3c([C@H](C)O)cc(nc3[C@H]2O)C(=O)O[C@@H]4C)n1)C(N)=O	-4.29%
CC[C@@H](CO)NC(=O)[C@@H]1C=C2c3cccc4c3c(cn4C)C[C@H]2N(C)C1	6.71%
C[C@H]1COc2c(C3(N)CC3)c(F)cc3c(=O)c(C(=O)O)cn1c23	-7.03%
CO/N=C(\C(=O)N[C@@H]1C(=O)N2C(C(=O)O)=C(Cn3ccc(=N)n3CCO)CS[C@H]12)c1csc(N)n1	0.89%
Cc1ccc(NC2=NCCN2)c(Cl)c1	3.69%
O=C(O)Cc1cccc2c(=O)cc(-c3ccccc3)oc12	2.52%
O=C(O)C(O)Cc1ccc(O)c(O)c1 (stereo not drawn)	17.7%
O=C1C(O)=C(O)C(=O)C(O)=C1O	1.91%
O=C1c2ccccc2C(=O)C1c1ccccc1	13.5%
CC(C)(C)c1nc(-c2cccc(NS(=O)(=O)c3c(F)cccc3F)c2F)c(-c2ccnc(N)n2)s1	3.8%
Nc1nc(N)nc(-c2cc(Cl)ccc2Cl)n1	-1.6%
CNC(=O)c1c(-c2ccc(F)cc2)oc2cc(N(CCO)S(C)(=O)=O)c(C3CC3)cc12	-1.7%
Brc1c(NC2=NCCN2)ccc2nccnc12	0.81%
CCCCOC(=O)c1ccccc1Nc1cccc(C(F)(F)F)c1	0.67%
COc1ccc(NC(=O)c2ccc(C(=N)N(C)C)cc2)c(C(=O)Nc2ccc(Cl)cn2)c1	6.12%
CC1(CN)Cc2ccccc2C1	0.66%
NC(=O)CN1C[C@H](O)CC1=O	-6.09%
OC(c1ccc(-c2ccc(CN3CCN(Cc4ccncc4)CC3)cc2)c(F)c1)(C(F)(F)F)C(F)(F)F	-0.02%
COc1cccc2c1C(=O)c1c(O)c3c(c(O)c1C2=O)C[C@@](O)(C(=O)CO)C[C@@H]3O[C@H]1C[C@H](N)[C@@H](O)[C@H](C)O1	61.4%
NC[C@H]1O[C@H](O[C@H]2[C@H](O)[C@@H](O[C@H]3O[C@H](CO)[C@@H](O)[C@H](N)[C@H]3O)[C@H](N)C[C@@H]2N)[C@H](N)[C@@H](O)[C@@H]1O	-8.51%
O=c1ncnc2n([C@H]3O[C@@H](CO)[C@H](O)[C@@H]3O)[nH]cc1-2 (stereo in doubt)	0.83%
Fc1ccc(CN2CCC(Nc3ccc(C(F)(F)F)nn3)CC2)cc1F	0.92%
O=c1[nH]c(=O)n([C@H]2C[C@H](O)[C@@H](CO)O2)cc1/C=C/Br	-3.71%
CC(C)(CCCCCC(O)CCCCCC(C)(C)C(=O)O)C(=O)O	-3.68%
Cc1nnc(NS(=O)(=O)c2ccc(N)cc2)s1	23.8%

Set 6 — method: RNA Bind-n-Seq; form: RNA; sample: in vitro; tested at: not given; baseline: input RNA pool; reading: higher = stronger binding
Target: RING finger protein unkempt homolog, zinc fingers 1-6, GST-SBP tag (UNK, Homo sapiens, UniProt Q9C0B0, residues 30-357)
Chain of UniProt Q9C0B0 (30-357, looked up): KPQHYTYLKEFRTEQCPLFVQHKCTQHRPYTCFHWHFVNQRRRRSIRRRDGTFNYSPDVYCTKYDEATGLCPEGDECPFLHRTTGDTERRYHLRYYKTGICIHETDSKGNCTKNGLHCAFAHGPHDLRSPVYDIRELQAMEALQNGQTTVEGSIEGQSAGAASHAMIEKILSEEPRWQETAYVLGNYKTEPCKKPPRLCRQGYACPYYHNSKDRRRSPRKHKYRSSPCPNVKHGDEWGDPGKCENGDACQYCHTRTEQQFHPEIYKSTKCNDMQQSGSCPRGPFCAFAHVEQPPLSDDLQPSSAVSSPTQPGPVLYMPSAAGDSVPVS
Setting: RNA with constant flanks, human-mouse chimeric sites, ends assumed
Shared flanks, not repeated: GGGAGUUCUACAGUCCGACGAUC … CAACAGAGGAUUGAGCAUCA
Strand	bound/input enrichment
UUACCCGAGAACGAGGAUGAGCUGGAGAGCACCAAUAGGCGCUACACCAAGAGGGACUGCAGCACUUUUCUCAGAACUAGUGAGACGGGCAUCGUGGACCAGGUCAUGGUCACUCUCAAC	0.275 ratio
AAAUCGUGUGUGUCCAAUAUUGAAAGUGCUUUAUCUACACUCCAGUAUGUAAGCAGUAUAGUAGUUUCUUUAGAGAAUAGGUCAGCCAUUGUGAAGUACAAUGCAAGCUUAGUCACUCCA	7.57 ratio
AGAAUCUUGGGACUGUUUUGCUUGAUUGGUCAUUGAUAGCUUAACAAACAUGGAGAUAAGAUUAGAAGUUUUGACAUCAACAGGUAUUAAGCAGAAAAAACCAUGGCCACGUGUCUCCUG	0.297 ratio
GCAGGAUCUUCUAAGUACCAGUGGGACAUUAUGAAAUCCCUUGGGCUGUCUGAUGAAGACAUAGUGAAGUUUUCUGAAGCAGAGCACUGGCUUGAUUAUUUCCCGCCACUGGCCGUUCAG	0.128 ratio
UUGCCUGAGAACGAGGAUGAGCUGGAGAGCACCAACAGACGCUAUACCAAGAGGGACUGCAGCACUUUCCUCAGAACUAGUGAGACGGGCAUCGUGGACCAGGUCAUGGUCACUCUCAAC	0.23 ratio
CCCUCCCGGGCCACCCAACCCCUCCCGGCUCCCCGCCGAGAUCCAGGUUUCUUCUUAUUUCAUAGCAAAUAAGAAAAAUGUUCUACGCACAUUUUGUCCUCAGUAAAAGAGGGCCUCUGG	0.667 ratio
GCUCCUCCCCGCUCUGCCCCUGCCUGCCACUGGGCUGGGACCAGAAUCCAGCUUUCUUUUAAAACUCUAUAUUUUUUUGUAUCCCGUGACAUUUCAUUUUUUUUAAAUAGUGUAUUUUUU	14.6 ratio
CUCUUUGAAUCUUUCAAGAGUUUUGAAGGUCUCUUUUAUUUUCUGGGAUCCAUUGUUAACUUUAGUCAGGACCCAGAUGUGCACUUUAAAUAUAUUCAGGCGGCUUGCAAGACUGGGCAA	0.764 ratio

For quick reference, copied from above (set 2):
SMILES	inhibition [%]
CN1CC[C@@]2(C)c3cc(O)ccc3N(C)[C@@H]12	91.5
O=C(O)C(=O)CBr	78.9
Oc1cc2c(cc1O)C(Cc1cccc3ccccc13)NCC2 (stereo not drawn)	39.7
